Measured values of several laboratories.
Compare with care: the assays were run in different laboratories. Several values in a cell are separate wells, animals, samples, runs or records. Numbers after ± are the reported error.
B1: adiponectin; sequence looked up; chain ETTTQGPGVLLPLPKGACTGWMAGIPGHPGHNGAPGRDGRDGTPGEKGEKGDPGLIGPKGDIGETGVPGAEGPRGFPGIQGRKGEPGEGAYVYRSAFSVGLETYVTIPNMPIRFTKIFYNQQNHYDGSTGKFHCNIPGLYYFAYHITVYMKDVKVSLFKKDKAMLFTYDQYQENNVDQASGSVLLHLEVGDQVWLQVYGEGERNGLYADNDNDSTFTGFLLYHDTN
B2: human zyxin; sequence looked up; chain AAPRPSPAISVSVSAPAFYAPQKKFGPVVAPKPKVNPFRPGDSEPPPAPGAQRAQMGRVGEIPPPPPEDFPLPPPPLAGDGDDAEGALGGAFPPPPPPIEESFPPAPLEEEIFPSPPPPPEEEGGPEAPIPPPPQPREKVSSIDLEIDSLSSLLDDMTKNDPFKARVSSGYVPPPVATPFSSKSSTKPAAGGTAPLPPWKSPSSSQPLPQVPAPAQSQTQFHVQPQPQPKPQVQLHVQSQTQPVSLANTQPRGPPASSPAPAPKFSPVTPKFTPVASKFSPGAPGGSGSQPNQKLGHPEALSAGTGSPQPPSFTYAQQREKPRVQEKQHPVPPPAQNQNQVRSPGAPGPLTLKEVEELEQLTQQLMQDMEHPQRQNVAVNELCGRCHQPLARAQPAVRALGQLFHIACFTCHQCAQQLQGQQFYSLEGAPYCEGCYTDTLEKCNTCGEPITDRMLRATGKAYHPHCFTCVVCARPLEGTSFIVDQANRPHCVPDYHKQYAPRCSVCSEPIMPEPGRDETVRVVALDKNFHMKCYKCEDCGKPLSIEADDNGCFPLDGHVLCRKCHTARAQT

Molecule	tested on	assay	system	setting	how to read	measurement	value
YEQDPWGVKWWY	mouse bone marrow-derived macrophages	qPCR, refers to: Fizz1	peptide	concentration not given, added: IL-4		mRNA level	decreased
Peginesatide	UT7/EPO	RT-qPCR, refers to: OSM		concentration not given, 90 min, normalized to HPRT1	relative to: vehicle	mRNA level	100 fold
human IPO8	PP6C (human)	co-immunoprecipitation, IP-MS	CYB5R4 knockout cells	concentration not given	relative to: CYB5R4 knockout over parental	log2 fold change	-0.44
recombinant human interleukin-1 beta	enteroid monolayers	refers to: ABCG2		1 ng/mL, 48 h		mRNA level	decreased
B1 (adiponectin)	HUVEC	real-time PCR, refers to: CXCL11		15 µg/mL, 24 h, unit not given, added: TNF-α and IFN-γ	relative to: stimulated untreated	mRNA level	0.94 ± 0.13
recombinant human interleukin-6	enteroid monolayers	refers to: ABCG2		1 ng/mL, 48 h		mRNA level	decreased
Pam2CSK4	BV-2	RT-qPCR, refers to: Msr1		concentration not given, unit not given	relative to: untreated	mRNA level	2.76 and 3.23 and 2.7
epoetin alfa	UT7/EPO	microarray, refers to: CISH mRNA (probe set 223377_x_at)		5 U/mL, 90 min	relative to: vehicle	mRNA level	6.5 fold
B2 (human zyxin)	CYB5R4 knockout human cells	PP4 interaction, 3xFLAG-PP4C IP-MS		concentration not given	relative to: CYB5R4 KO over parental	log2 fold change	-0.56
monocyte chemoattractant protein-1	THP-1 monocytes	real-time RT-PCR, refers to: IL8, IL1B and TNFA		50 ng/mL, 24 h		mRNA level	increased

Excerpt of the above:
Molecule	tested on	assay	system	setting	how to read	measurement	value
Pam2CSK4	BV-2	RT-qPCR, refers to: Msr1		concentration not given, unit not given	relative to: untreated	mRNA level	2.76 and 3.23 and 2.7
